{"data": "Results of several laboratories", "note": "Numbered parts are unrelated; each lists some results of a single study. Substitutions count along the parent as printed."}
{"data": "Series 1", "target": "NFE2L2, bZIP domain (human)", "technique": "DHFR protein complementation", "matrix": "yeast", "setting": "single substitutions, most at no-binding floor", "reference": "wild-type JUN-FOS pair", "direction": "higher = stronger binding", "starting sequence": "JUN, bZIP domain (human); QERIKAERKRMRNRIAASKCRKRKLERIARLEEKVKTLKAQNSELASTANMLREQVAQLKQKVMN; partner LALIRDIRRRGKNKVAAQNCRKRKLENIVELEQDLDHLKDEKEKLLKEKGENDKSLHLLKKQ"}
{"Variant": "M51V", "binding fitness": "-1.4 natural log"}
{"Variant": "V35R", "binding fitness": "-1.48 natural log"}
{"Variant": "L31G", "binding fitness": "-1.47 natural log"}
{"Variant": "E44R", "binding fitness": "-1.38 natural log"}
{"Variant": "A46C", "binding fitness": "-1.47 natural log"}
{"Variant": "E33Q", "binding fitness": "-1.6 natural log"}
{"Variant": "I28F", "binding fitness": "-1.5 natural log"}
{"Variant": "T37H", "binding fitness": "-1.25 natural log"}
{"data": "Series 2", "target": "Histone acetyltransferase KAT6A, winged helix 2, GST fusion (KAT6A, Homo sapiens, UniProt Q92794, residues 85-181)", "technique": "protein binding microarray", "form": "double-stranded DNA, one strand shown", "matrix": "in vitro", "tested at": "not given", "setting": "8-mer, flanks averaged, mean of 2 arrays, mostly near background", "reference": "not given", "direction": "higher = stronger binding", "Construct (chain)": "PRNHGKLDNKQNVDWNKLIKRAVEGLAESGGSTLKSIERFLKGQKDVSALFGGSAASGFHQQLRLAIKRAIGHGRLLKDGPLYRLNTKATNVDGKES"}
{"Sequence": "AATTCTGT", "E-score": -0.0653}
{"Sequence": "CCCAACAG", "E-score": 0.0494}
{"Sequence": "AGGCCTAC", "E-score": -0.0696}
{"Sequence": "CCCGCCCA", "E-score": 0.186}
{"Sequence": "CATCGAGC", "E-score": 0.0663}
{"Sequence": "AGGCTAGA", "E-score": -0.168}
{"Sequence": "AAATTCTT", "E-score": -0.094}
{"Sequence": "CGTGGGAC", "E-score": 0.18}
{"data": "Series 3", "target": "Interferon regulatory factor 3, full length, phosphomimetic (IRF3, Homo sapiens, UniProt Q14653, residues 1-427, S386D/S396D/S398D/S402D/T404D/S405D)", "technique": "protein-binding microarray", "form": "double-stranded DNA, one strand shown", "matrix": "in vitro", "tested at": "2540 nM top", "setting": "60-bp whole probe", "added": "salmon DNA 0.4 mg/ml", "reference": "random background probes", "direction": "higher = stronger binding", "all sequences stand within": "GCCTAGCAC … GTCTTGATTCGCTTGACGCTGCTG", "UniProt Q14653, sequence (whole entry, unmodified, looked up)": "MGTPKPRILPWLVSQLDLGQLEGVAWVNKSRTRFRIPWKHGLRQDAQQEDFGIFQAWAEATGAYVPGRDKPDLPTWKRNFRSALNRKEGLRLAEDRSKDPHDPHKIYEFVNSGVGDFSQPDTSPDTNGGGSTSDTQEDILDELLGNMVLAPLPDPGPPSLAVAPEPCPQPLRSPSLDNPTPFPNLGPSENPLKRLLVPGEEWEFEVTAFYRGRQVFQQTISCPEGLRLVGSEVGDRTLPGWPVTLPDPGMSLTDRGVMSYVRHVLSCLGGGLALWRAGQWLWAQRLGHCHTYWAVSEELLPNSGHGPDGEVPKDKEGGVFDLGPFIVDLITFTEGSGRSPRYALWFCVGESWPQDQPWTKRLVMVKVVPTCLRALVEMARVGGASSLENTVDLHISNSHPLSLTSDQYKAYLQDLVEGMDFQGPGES"}
{"Sequence": "TCATGCCTGTTTTTCCCACTGTGCTAG", "fitted relative affinity [z-score]": 0.369}
{"Sequence": "AACCTTATTAAGATTGTGCAAGTGCTA", "fitted relative affinity [z-score]": 0.644}
{"Sequence": "CTTAGTTTGTATATATTTTAGTGCTAG", "fitted relative affinity [z-score]": 0.585}
{"Sequence": "ATAGATATCGGGTATCGATTAGTGCTA", "fitted relative affinity [z-score]": 0.575}
{"Sequence": "GACGATTTCAGACTGGAGACGTGCTAG", "fitted relative affinity [z-score]": 0.965}
{"Sequence": "GACGGTCTCGGGTATCGGGACGTGCTA", "fitted relative affinity [z-score]": 0.311}
{"Sequence": "GACGGTTCCCATTTCCTGACGTGCTAG", "fitted relative affinity [z-score]": 4.23}
{"Sequence": "TTCGATTTCAGTTCCGATTAGTGCTAG", "fitted relative affinity [z-score]": 3.91}
{"data": "Other studies, line by line", "starting sequence": "viral docking peptide; KGVKRKLFAEDSS"}
{"Variant": "KGKKRKLFAEDSS [V3K]", "target": "CCNA1, cyclin fold, Cln2 fusion (human)", "test": "yeast growth competition, sequencing", "system": "yeast", "setting": "weak parent motif", "scale": "reference: not given, higher = stronger binding", "measurement": "normalised enrichment score", "result": 0.346}
{"note": "Repeated from above (series 2):"}
{"Sequence": "CCCGCCCA", "E-score": 0.186}
